Experimental data collected from several papers.
Numbers after ± are the reported error.

Substance | organism | test | system | setting | MIC
C[C@@H](c1ncncc1F)[C@](O)(Cn1cncn1)c1ccc(F)cc1F | Acanthamoeba polyphaga | cell growth, resazurin | – | 96 h, 28 °C | 0.25 µg/mL
KTLTGKTITLE | Bacillus megaterium | – | peptide, 899, Luria broth | overnight, 37 °C | > 100 µM
CC1(C)SC2C(NC(=O)C(NC(=O)C3=C(O)C(c4ccccc4)NC3=O)c3ccccc3)C(=O)N2C1C(=O)O (centres unmarked) | Escherichia coli | broth microdilution | BW25113, Mueller-Hinton broth | 18 h, without clavulanic acid | 100 µg/mL
O[C@@](Cn1cnnn1)(c1ccc(F)cc1F)C(F)(F)c1ccc(-c2ccc(OCC(F)(F)F)cc2)cn1 | Acanthamoeba polyphaga | cell growth, resazurin | – | 96 h, 28 °C | 0.06 µg/mL
CC1(C)SC2C(NC(=O)C(NC(=O)C3=C(O)C(Cc4ccccc4)NC3=O)c3ccccc3)C(=O)N2C1C(=O)O (centres unmarked) | Acinetobacter baumannii | microbial growth, broth dilution | ATCC19606 | – | 50 µg/mL
pneumocandin J | Candida glabrata | broth microdilution, resazurin | ATCC 2001 | 24 h, 35 °C | 3.2 µg/mL
CC1(C)CC[C@]2(C(=O)O)CC[C@]3(C)C(=CC[C@@H]4[C@@]5(C)CC[C@H](O)C(C)(C)[C@@H]5CC[C@]43C)[C@@H]2C1 | Lodderomyces parapsilosis | microbial growth, broth dilution | ATCC22019 | 48 h | 500 µg/mL
CC1(C)S[C@@H]2[C@H](NC(=O)[C@H](N)c3ccccc3)C(=O)N2[C@H]1C(=O)O | Lactiplantibacillus plantarum subsp. plantarum | broth microdilution | ATCC 10241, MRS medium | 24 h, 37 °C | 0.62 ± 0.6 µg/mL
CC1NC(=O)C(C(=O)NC(C(=O)NC2C(=O)N3C2SC(C)(C)C3C(=O)O)c2ccccc2)=C1O (centres unmarked) | Escherichia coli | broth microdilution | BW25113, Mueller-Hinton broth | added: 2,2'-bipyridyl 30 µg/mL | 100 µg/mL
CCOC(=O)c1c(N)csc1-c1cn(-c2ccccc2)nc1-c1ccc(C)cc1 | Acinetobacter baumannii | broth microdilution | clinical urinary isolate | compound gamma-irradiated 0 kGy | 0.24 ± 0.1 µg/mL
pneumocandin A0 | Candida glabrata | broth microdilution, resazurin | ATCC 2001 | 24 h, 35 °C | 1.6 µg/mL
CC1(C)SC2C(NC(=O)C(NC(=O)C3=C(O)C(Cc4ccsc4)NC3=O)c3ccccc3)C(=O)N2C1C(=O)O (centres unmarked) | Acinetobacter baumannii | microbial growth, broth dilution | ATCC19606 | – | 50 µg/mL
pneumocandin I | Candida glabrata | broth microdilution, resazurin | ATCC 2001 | 24 h, 35 °C | 0.1 µg/mL
COc1ccc(-c2nc3cc(-c4nc5cc(N6CCN(C)CC6)ccc5[nH]4)ccc3[nH]2)cc1 | Candida parapsilosis | fungal growth | ATCC 22019 | MIC-0 endpoint | 3.9 to 7.8 µg/mL

Repeated from above:
Substance | organism | test | system | setting | MIC
CC1(C)CC[C@]2(C(=O)O)CC[C@]3(C)C(=CC[C@@H]4[C@@]5(C)CC[C@H](O)C(C)(C)[C@@H]5CC[C@]43C)[C@@H]2C1 | Lodderomyces parapsilosis | microbial growth, broth dilution | ATCC22019 | 48 h | 500 µg/mL
